Assay results collected from several papers.
Protocols differ between the studies behind these lines. Numbers after ± are the reported error.
Cacna1b with α2δ, β3 subunits: Voltage-dependent N-type calcium channel subunit alpha-1B, with α2δ, β3 subunits (Cacna1b, Rattus norvegicus, UniProt Q02294)
Enoyl-[acyl-carrier-protein] reductase [NADH]: Enoyl-[acyl-carrier-protein] reductase [NADH] (Francisella tularensis subsp. tularensis, UniProt Q5NGQ3)
Spike glycoprotein: Spike glycoprotein (MERS-CoV, UniProt K9N5Q8)
bglR: Beta-glucuronidase (bglR, Clostridium perfringens, UniProt Q8XP19)
Spike glycoprotein Beta variant: Spike glycoprotein, Beta variant (Severe acute respiratory syndrome coronavirus 2, UniProt P0DTC2)

The chains behind the UniProt entries cited, without tags or fusion partners. Where a name states a change or a piece, a line headed by the entry shows the natural chain unless it says otherwise.
UniProt Q02294, whole entry, looked up: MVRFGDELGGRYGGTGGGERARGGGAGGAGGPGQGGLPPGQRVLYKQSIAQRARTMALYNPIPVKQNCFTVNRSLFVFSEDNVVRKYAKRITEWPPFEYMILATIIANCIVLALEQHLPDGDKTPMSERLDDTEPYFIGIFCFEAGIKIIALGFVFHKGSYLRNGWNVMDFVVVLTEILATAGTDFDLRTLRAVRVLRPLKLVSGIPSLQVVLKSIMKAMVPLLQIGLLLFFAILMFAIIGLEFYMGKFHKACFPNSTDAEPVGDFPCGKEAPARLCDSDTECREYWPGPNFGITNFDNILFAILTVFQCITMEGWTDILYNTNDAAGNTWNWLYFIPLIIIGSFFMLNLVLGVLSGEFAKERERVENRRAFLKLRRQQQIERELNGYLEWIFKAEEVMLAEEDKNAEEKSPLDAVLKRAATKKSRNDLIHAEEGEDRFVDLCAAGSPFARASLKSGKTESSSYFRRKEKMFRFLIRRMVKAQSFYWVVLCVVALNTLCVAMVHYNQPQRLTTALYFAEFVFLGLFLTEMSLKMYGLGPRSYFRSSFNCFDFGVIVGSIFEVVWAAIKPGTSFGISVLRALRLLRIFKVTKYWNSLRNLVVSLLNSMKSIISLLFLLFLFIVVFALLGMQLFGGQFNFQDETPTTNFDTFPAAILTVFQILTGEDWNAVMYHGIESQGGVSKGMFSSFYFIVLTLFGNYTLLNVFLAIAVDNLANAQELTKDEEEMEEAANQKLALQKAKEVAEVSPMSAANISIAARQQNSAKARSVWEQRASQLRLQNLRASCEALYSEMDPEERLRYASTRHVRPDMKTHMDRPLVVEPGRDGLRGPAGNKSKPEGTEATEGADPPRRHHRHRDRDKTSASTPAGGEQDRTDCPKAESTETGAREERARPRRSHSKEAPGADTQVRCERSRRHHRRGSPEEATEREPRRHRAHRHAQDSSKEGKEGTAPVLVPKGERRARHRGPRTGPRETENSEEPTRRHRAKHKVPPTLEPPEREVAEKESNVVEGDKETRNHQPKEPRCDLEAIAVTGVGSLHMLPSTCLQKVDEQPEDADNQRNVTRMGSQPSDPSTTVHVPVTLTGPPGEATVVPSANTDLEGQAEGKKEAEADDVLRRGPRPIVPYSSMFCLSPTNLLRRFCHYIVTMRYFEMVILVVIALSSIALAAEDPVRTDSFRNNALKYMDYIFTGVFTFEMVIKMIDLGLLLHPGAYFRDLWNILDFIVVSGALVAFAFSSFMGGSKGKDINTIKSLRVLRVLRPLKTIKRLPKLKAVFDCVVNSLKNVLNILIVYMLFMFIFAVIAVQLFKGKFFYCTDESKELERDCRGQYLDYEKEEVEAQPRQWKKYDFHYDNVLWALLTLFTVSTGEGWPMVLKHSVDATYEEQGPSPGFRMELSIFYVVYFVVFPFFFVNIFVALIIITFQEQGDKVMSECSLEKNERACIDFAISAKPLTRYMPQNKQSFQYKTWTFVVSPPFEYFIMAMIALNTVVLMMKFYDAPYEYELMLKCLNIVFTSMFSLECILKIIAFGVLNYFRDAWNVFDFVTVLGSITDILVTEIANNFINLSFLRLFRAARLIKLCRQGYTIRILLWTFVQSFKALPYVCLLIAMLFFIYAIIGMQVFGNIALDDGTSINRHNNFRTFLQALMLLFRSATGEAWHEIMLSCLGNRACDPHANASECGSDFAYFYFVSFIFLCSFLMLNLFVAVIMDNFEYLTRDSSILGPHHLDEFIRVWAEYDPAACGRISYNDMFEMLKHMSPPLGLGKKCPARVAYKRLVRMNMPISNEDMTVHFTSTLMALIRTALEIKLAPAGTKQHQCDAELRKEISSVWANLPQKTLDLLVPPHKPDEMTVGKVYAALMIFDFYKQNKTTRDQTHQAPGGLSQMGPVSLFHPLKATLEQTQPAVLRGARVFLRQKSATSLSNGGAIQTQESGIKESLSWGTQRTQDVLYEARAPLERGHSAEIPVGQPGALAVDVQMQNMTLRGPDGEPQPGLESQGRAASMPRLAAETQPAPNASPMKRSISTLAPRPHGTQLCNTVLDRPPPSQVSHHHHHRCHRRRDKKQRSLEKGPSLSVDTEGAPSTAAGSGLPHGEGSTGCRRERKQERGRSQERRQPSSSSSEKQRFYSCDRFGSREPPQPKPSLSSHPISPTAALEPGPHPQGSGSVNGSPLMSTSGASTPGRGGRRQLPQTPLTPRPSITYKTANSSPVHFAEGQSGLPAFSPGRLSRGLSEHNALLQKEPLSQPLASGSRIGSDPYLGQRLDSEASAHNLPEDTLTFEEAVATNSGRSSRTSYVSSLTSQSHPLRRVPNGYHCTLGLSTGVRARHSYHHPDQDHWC
UniProt P04775, whole entry: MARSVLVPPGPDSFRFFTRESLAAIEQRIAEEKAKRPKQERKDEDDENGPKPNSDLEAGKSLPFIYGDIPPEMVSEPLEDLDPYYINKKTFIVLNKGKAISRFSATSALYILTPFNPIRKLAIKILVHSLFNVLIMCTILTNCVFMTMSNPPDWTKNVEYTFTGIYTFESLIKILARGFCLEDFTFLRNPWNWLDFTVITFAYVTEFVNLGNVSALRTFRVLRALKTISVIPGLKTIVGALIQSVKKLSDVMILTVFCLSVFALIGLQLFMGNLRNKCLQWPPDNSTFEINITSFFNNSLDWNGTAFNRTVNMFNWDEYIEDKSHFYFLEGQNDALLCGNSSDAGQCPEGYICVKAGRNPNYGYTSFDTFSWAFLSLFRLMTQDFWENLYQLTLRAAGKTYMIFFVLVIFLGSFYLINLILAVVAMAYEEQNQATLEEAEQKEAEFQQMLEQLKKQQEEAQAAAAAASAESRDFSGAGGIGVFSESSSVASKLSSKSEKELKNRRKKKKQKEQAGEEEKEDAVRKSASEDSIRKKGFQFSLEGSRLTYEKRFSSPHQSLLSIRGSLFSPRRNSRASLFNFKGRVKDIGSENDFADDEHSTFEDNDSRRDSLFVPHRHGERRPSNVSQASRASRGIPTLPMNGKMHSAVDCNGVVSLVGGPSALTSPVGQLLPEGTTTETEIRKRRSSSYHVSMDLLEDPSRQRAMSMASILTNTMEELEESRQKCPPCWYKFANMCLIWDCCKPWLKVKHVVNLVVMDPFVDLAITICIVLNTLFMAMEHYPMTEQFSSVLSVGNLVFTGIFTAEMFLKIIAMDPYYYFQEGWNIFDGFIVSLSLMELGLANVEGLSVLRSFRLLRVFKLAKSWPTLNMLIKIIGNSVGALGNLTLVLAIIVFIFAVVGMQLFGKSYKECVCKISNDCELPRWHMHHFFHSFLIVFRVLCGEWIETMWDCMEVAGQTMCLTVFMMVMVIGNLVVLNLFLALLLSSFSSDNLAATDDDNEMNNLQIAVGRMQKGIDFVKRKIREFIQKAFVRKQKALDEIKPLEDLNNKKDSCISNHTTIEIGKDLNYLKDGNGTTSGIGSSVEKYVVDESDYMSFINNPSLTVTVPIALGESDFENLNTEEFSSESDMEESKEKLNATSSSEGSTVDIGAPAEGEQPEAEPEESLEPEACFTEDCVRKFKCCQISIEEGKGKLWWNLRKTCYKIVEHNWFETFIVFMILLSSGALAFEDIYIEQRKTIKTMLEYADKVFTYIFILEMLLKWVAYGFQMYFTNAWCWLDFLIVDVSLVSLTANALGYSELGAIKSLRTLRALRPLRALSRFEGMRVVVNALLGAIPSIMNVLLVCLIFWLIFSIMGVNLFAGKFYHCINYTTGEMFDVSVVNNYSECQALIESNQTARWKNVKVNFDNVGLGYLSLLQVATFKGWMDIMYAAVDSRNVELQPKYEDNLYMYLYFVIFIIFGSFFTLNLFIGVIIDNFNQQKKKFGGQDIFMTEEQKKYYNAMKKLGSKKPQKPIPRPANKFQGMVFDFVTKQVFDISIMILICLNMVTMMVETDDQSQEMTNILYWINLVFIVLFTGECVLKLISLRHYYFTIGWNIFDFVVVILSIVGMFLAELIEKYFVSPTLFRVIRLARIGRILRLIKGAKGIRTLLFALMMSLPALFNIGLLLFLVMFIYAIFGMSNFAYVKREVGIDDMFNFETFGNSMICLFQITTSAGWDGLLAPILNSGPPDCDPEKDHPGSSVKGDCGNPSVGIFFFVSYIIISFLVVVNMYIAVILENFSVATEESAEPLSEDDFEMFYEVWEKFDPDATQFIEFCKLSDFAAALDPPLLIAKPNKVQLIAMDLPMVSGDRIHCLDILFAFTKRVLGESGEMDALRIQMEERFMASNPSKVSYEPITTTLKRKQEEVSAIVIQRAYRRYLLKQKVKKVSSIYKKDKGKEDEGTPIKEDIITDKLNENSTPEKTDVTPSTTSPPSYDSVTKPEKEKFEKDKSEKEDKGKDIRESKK
UniProt P97612, whole entry, looked up: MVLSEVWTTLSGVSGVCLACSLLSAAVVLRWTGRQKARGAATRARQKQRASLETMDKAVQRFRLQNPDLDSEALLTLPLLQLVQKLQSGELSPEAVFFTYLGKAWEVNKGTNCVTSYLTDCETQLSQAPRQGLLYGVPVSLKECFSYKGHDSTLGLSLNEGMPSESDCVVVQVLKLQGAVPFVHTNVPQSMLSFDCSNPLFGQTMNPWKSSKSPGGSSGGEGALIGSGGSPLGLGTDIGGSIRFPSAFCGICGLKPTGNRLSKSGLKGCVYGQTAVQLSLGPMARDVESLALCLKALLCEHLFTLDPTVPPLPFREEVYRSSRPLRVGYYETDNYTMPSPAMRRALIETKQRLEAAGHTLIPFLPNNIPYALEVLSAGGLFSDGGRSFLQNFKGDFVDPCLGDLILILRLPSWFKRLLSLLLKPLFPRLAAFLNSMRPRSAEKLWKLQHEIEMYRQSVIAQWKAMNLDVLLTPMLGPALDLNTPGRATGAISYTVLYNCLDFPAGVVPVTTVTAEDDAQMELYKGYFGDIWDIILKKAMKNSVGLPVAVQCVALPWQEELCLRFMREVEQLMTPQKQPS

Structure (SMILES)	target	test	system	setting	IC50
C[C@@H]1NC(=O)[C@@H]2CSSC[C@@H]3NC(=O)[C@H](CO)NC(=O)CNC(=O)[C@H]([C@@H](C)O)NC(=O)[C@H](CSSC[C@H](N)C(=O)N[C@@H](CCCCN)C(=O)N[C@@H](CCCNC(=N)N)C(=O)N[C@@H](CCCCN)C(=O)NCC(=O)N[C@@H](CO)C(=O)N[C@@H](CO)C(=O)N2)NC(=O)[C@H](CSSC[C@@H](C(N)=O)NC(=O)[C@H](CCCCN)NC(=O)CNC(=O)[C@H](CC(N)=O)NC(=O)[C@H](CCCNC(=N)N)NC3=O)NC(=O)[C@H](CC(=O)O)NC(=O)[C@H](Cc2ccc(O)cc2)NC(=O)[C@H](CO)NC(=O)[C@H]([C@@H](C)O)NC(=O)[C@H](CCCNC(=N)N)NC1=O	Cacna1b with α2δ, β3 subunits	Ba2+ current, inhibitor, whole-cell patch clamp	HEK293 expressing α2δ and β3	22 °C, added: Ba2+ 20 mM	418 nM
Cc1ccc(Cn2cnc3ccccc32)cc1	Enoyl-[acyl-carrier-protein] reductase [NADH]				90000 nM
CC[C@H](C)[C@H](NC(=O)[C@H](C)NC(=O)[C@H](CCC(=O)O)NC(=O)[C@H](CCC(=O)O)NC(=O)[C@H](CC(C)C)NC(=O)[C@H](CCCCN)NC(=O)[C@H](CCCCN)NC(=O)[C@H](CCSC)NC(=O)[C@H](CCC(=O)O)NC(=O)[C@H](Cc1ccc(O)cc1)NC(=O)[C@H](CCC(=O)O)NC(=O)[C@H](CC(C)C)NC(=O)[C@H](CC(=O)O)NC(=O)[C@H](CC(C)C)NC(=O)[C@H](Cc1ccccc1)NC(=O)[C@@H](NC(=O)[C@@H](NC(=O)[C@H](CC(N)=O)NC(=O)[C@@H](NC(=O)[C@H](CCC(N)=O)NC(=O)[C@H](CC(=O)O)NC(=O)[C@H](CC(C)C)NC(=O)[C@H](CO)NC(=O)[C@H](CC(C)C)NC(=O)[C@H](CC(=O)O)NC(=O)[C@@H]1CCCN1C(=O)[C@H](C)N)[C@@H](C)CC)C(C)C)[C@@H](C)O)C(=O)N[C@@H](CCCCN)C(=O)N[C@@H](CCCCN)C(=O)N[C@@H](CC(C)C)C(=O)N[C@@H](CCC(=O)O)C(=O)N[C@@H](CCC(=O)O)C(=O)N[C@@H](CO)C(=O)N[C@@H](Cc1ccc(O)cc1)C(=O)N[C@H](C(=O)N[C@@H](CC(=O)O)C(=O)N[C@@H](CC(C)C)C(=O)N[C@@H](CCCCN)C(=O)N[C@@H](CCC(=O)O)C(=O)N[C@@H](CC(C)C)C(=O)O)[C@@H](C)CC	Spike glycoprotein	cell-cell fusion, inhibitor, luciferase fusion	293T donor, Huh-7 target	16 h, 37 °C	1460 nM
CNc1nc(N2CCNCC2)c2sc3ncccc3c2n1	bglR	enzyme activity, inhibitor			60 ± 1 nM
O=C(O)C(O)=CC(=O)c1ccc2cc(O)c(O)cc2c1	Nucleoprotein, exonuclease domain (N, Lymphocytic choriomeningitis virus, UniProt P09992)	exonuclease activity, inhibitor			5630 ± 350 nM
OCCNc1nc(N2CCNCC2)c2sc3nc(-c4ccccc4)ccc3c2n1	bglR	enzyme activity, inhibitor			51 ± 1 nM
CC[C@H](C)[C@H](NC(=O)[C@H](C)NC(=O)[C@H](CCC(=O)O)NC(=O)[C@H](CCC(=O)O)NC(=O)[C@H](CC(C)C)NC(=O)[C@H](CCCCN)NC(=O)[C@H](CCCCN)NC(=O)[C@H](CCSC)NC(=O)[C@H](CCC(=O)O)NC(=O)[C@H](Cc1ccc(O)cc1)NC(=O)[C@H](CCC(=O)O)NC(=O)[C@H](CC(C)C)NC(=O)[C@H](CC(=O)O)NC(=O)[C@H](CC(C)C)NC(=O)[C@H](Cc1ccccc1)NC(=O)[C@@H](NC(=O)[C@@H](NC(=O)[C@H](CC(N)=O)NC(=O)[C@@H](NC(=O)[C@H](CCC(N)=O)NC(=O)[C@H](CC(=O)O)NC(=O)[C@H](CC(C)C)NC(=O)[C@@H](N)CO)[C@@H](C)CC)C(C)C)[C@@H](C)O)C(=O)N[C@@H](CCCCN)C(=O)N[C@@H](CCCCN)C(=O)N[C@@H](CC(C)C)C(=O)N[C@@H](CCC(=O)O)C(=O)N[C@@H](CCC(=O)O)C(=O)N[C@@H](C)C(=O)N[C@@H](Cc1ccc(O)cc1)C(=O)N[C@H](C(=O)N[C@@H](CC(=O)O)C(=O)N[C@@H](CC(C)C)C(=O)N[C@@H](CCCCN)C(=O)N[C@@H](CCC(=O)O)C(=O)N[C@@H](CC(C)C)C(=O)O)[C@@H](C)CC	Spike glycoprotein	cell-cell fusion, inhibitor, luciferase fusion	293T donor, Huh-7 target	16 h, 37 °C	824 nM
CC(=O)N[C@@H](CCCCN)C(=O)N[C@@H](Cc1c[nH]c2ccccc12)C(=O)N[C@H]1CCCCNC(=O)C[C@@H](C(=O)N[C@@H](CCCNC(=N)N)C(N)=O)NC(=O)[C@H](Cc2c[nH]cn2)NC(=O)[C@H](CC(=O)O)NC(=O)[C@H](CCCNC(=N)N)NC1=O	Scn2a (Rattus norvegicus, UniProt P04775)	ion current, inhibitor, Hill equation fit		rat channel	52300 ± 2800 nM
C[C@@H]1NC(=O)[C@H](CCCNC(=N)N)NC(=O)[C@H](CCCNC(=N)N)NC(=O)[C@@H]2CSSC[C@@H]3NC(=O)[C@H](CO)NC(=O)CNC(=O)[C@H]([C@@H](C)O)NC(=O)[C@H](CSSC[C@H](N)C(=O)N[C@@H](CCCCN)C(=O)N[C@@H](CCCNC(=N)N)C(=O)N[C@@H](CCCCN)C(=O)NCC(=O)N[C@@H](CO)C(=O)N[C@@H](CO)C(=O)N2)NC(=O)[C@H](CSSC[C@@H](C(N)=O)NC(=O)[C@H](CCCCN)NC(=O)CNC(=O)[C@H](CC(N)=O)NC(=O)[C@H](CCCNC(=N)N)NC3=O)NC(=O)[C@H](CC(=O)O)NC(=O)[C@H](Cc2ccc(O)cc2)NC(=O)[C@H](CO)NC1=O	Cacna1b with α2δ, β3 subunits	Ba2+ current, inhibitor, whole-cell patch clamp	HEK293 expressing α2δ and β3	22 °C, added: Ba2+ 20 mM	793 nM
CC[C@H](C)[C@H](NC(=O)[C@H](C)NC(=O)[C@H](CCC(=O)O)NC(=O)[C@H](CCC(=O)O)NC(=O)[C@H](CC(C)C)NC(=O)[C@H](CCCCN)NC(=O)[C@H](CCCCN)NC(=O)[C@H](CCSC)NC(=O)[C@H](CCC(=O)O)NC(=O)[C@H](Cc1ccc(O)cc1)NC(=O)[C@H](CCC(=O)O)NC(=O)[C@H](CC(C)C)NC(=O)[C@H](CC(=O)O)NC(=O)[C@H](CC(C)C)NC(=O)[C@H](Cc1ccccc1)NC(=O)[C@H](Cc1ccccc1)NC(=O)[C@@H](NC(=O)[C@H](CC(N)=O)NC(=O)[C@@H](NC(=O)[C@H](CCC(N)=O)NC(=O)[C@H](CC(=O)O)NC(=O)[C@H](CC(C)C)NC(=O)[C@@H](N)CO)[C@@H](C)CC)C(C)C)C(=O)N[C@@H](CCCCN)C(=O)N[C@@H](CCCCN)C(=O)N[C@@H](CC(C)C)C(=O)N[C@@H](CCC(=O)O)C(=O)N[C@@H](CCC(=O)O)C(=O)N[C@@H](C)C(=O)N[C@@H](Cc1ccc(O)cc1)C(=O)N[C@H](C(=O)N[C@@H](CC(=O)O)C(=O)N[C@@H](CC(C)C)C(=O)N[C@@H](CCCCN)C(=O)N[C@@H](CCC(=O)O)C(=O)N[C@@H](CC(C)C)C(=O)O)[C@@H](C)CC	Spike glycoprotein Beta variant	cell-cell fusion, inhibitor, luciferase fusion	293T donor, Huh-7 target	16 h, 37 °C, dual mutations	146 nM
CCSc1nc2ccccc2n1Cc1ccc(Cl)cc1	Enoyl-[acyl-carrier-protein] reductase [NADH]				> 100000 nM
CC[C@H](C)[C@H](NC(=O)[C@H](C)NC(=O)[C@H](CCC(=O)O)NC(=O)[C@H](CCC(=O)O)NC(=O)[C@H](CC(C)C)NC(=O)[C@H](CCCCN)NC(=O)[C@H](CCCCN)NC(=O)[C@H](CCSC)NC(=O)[C@H](CCC(=O)O)NC(=O)[C@H](Cc1ccc(O)cc1)NC(=O)[C@H](CCC(=O)O)NC(=O)[C@H](CC(C)C)NC(=O)[C@H](CC(=O)O)NC(=O)[C@H](CC(C)C)NC(=O)[C@H](Cc1ccccc1)NC(=O)[C@@H](NC(=O)[C@@H](NC(=O)[C@H](CC(N)=O)NC(=O)[C@@H](NC(=O)[C@H](CCC(N)=O)NC(=O)[C@H](CC(=O)O)NC(=O)[C@H](CC(C)C)NC(=O)[C@@H](N)CO)[C@@H](C)CC)C(C)C)[C@@H](C)O)C(=O)N[C@@H](CCCCN)C(=O)N[C@@H](CCCCN)C(=O)N[C@@H](CC(C)C)C(=O)N[C@@H](CCC(=O)O)C(=O)N[C@@H](CCC(=O)O)C(=O)N[C@@H](CO)C(=O)N[C@@H](Cc1ccc(O)cc1)C(=O)N[C@H](C(=O)N[C@@H](CC(=O)O)C(=O)N[C@@H](CC(C)C)C(=O)N[C@@H](CCCCN)C(=O)N[C@@H](CCC(=O)O)C(=O)N[C@@H](CC(C)C)C(=O)O)[C@@H](C)CC	Spike glycoprotein	cell-cell fusion, inhibitor, luciferase fusion	293T donor, Huh-7 target	16 h, 37 °C, dual mutations	2410 nM
NC(=O)CCOc1c(SSc2cnn(-c3ccccc3)c(=O)c2OCCC(N)=O)cnn(-c2ccccc2)c1=O	Sortase A (Bacillus anthracis str. H9401, UniProt P0DPQ5)	inhibitor	Bacillus anthracis		11900 ± 700 nM
CCCCC/C=C\C/C=C\C/C=C\C/C=C\CCCCP(=O)(F)OC (centres unmarked)	Faah (Rattus norvegicus, UniProt P97612)			added: FP-biotin 1 µM	5.1 nM
C(=C\c1ccccc1)/CN1CCN(C(c2ccccc2)c2ccccc2)CC1	Replicase polyprotein 1ab, nsp14 (rep, Severe acute respiratory syndrome-related coronavirus, UniProt P0C6X7)	enzyme activity, inhibitor			9100 ± 700 nM
CC[C@H](C)[C@H](NC(=O)[C@H](C)NC(=O)[C@H](CCC(=O)O)NC(=O)[C@H](CCC(=O)O)NC(=O)[C@H](CC(C)C)NC(=O)[C@H](CCCCN)NC(=O)[C@H](CCCCN)NC(=O)[C@H](CCSC)NC(=O)[C@H](CCC(=O)O)NC(=O)[C@H](Cc1ccc(O)cc1)NC(=O)[C@H](CCC(=O)O)NC(=O)[C@H](CC(C)C)NC(=O)[C@H](CC(=O)O)NC(=O)[C@H](CC(C)C)NC(=O)[C@H](Cc1ccccc1)NC(=O)[C@@H](NC(=O)[C@@H](NC(=O)[C@H](CC(N)=O)NC(=O)[C@@H](NC(=O)[C@H](CCC(N)=O)NC(=O)[C@H](CC(=O)O)NC(=O)[C@H](CC(C)C)NC(=O)[C@@H](N)CO)[C@@H](C)CC)C(C)C)[C@@H](C)O)C(=O)N[C@@H](CCCCN)C(=O)N[C@@H](CCCCN)C(=O)N[C@@H](CC(C)C)C(=O)N[C@@H](CCC(=O)O)C(=O)N[C@@H](CCC(=O)O)C(=O)N[C@H](C(=O)N[C@@H](Cc1ccc(O)cc1)C(=O)N[C@H](C(=O)N[C@@H](CC(=O)O)C(=O)N[C@@H](CC(C)C)C(=O)N[C@@H](CCCCN)C(=O)N[C@@H](CCC(=O)O)C(=O)N[C@@H](CC(C)C)C(=O)O)[C@@H](C)CC)[C@@H](C)O	Spike glycoprotein Beta variant	cell-cell fusion, inhibitor, luciferase fusion	293T donor, Huh-7 target	16 h, 37 °C	58.4 nM
C#CCOc1ccc(-c2cc(C(=O)NC/C=C/S(C)(=O)=O)n[nH]2)cc1	Polyprotein P1234, nsP2 protease (Chikungunya virus, UniProt Q5XXP4)	FRET			100 ± 3 nM

Repeated from above:
Structure (SMILES)	target	test	system	setting	IC50
Cc1ccc(Cn2cnc3ccccc32)cc1	Enoyl-[acyl-carrier-protein] reductase [NADH]				90000 nM
C(=C\c1ccccc1)/CN1CCN(C(c2ccccc2)c2ccccc2)CC1	Replicase polyprotein 1ab, nsp14 (rep, Severe acute respiratory syndrome-related coronavirus, UniProt P0C6X7)	enzyme activity, inhibitor			9100 ± 700 nM
